# Measured values of several laboratories.
# Compare with care: the assays were run in different laboratories. ± gives the spread as reported.
# HTR4: 5-hydroxytryptamine receptor 4 (HTR4, Cavia porcellus, UniProt O70528)
# Sequence of UniProt O70528 (whole entry, looked up): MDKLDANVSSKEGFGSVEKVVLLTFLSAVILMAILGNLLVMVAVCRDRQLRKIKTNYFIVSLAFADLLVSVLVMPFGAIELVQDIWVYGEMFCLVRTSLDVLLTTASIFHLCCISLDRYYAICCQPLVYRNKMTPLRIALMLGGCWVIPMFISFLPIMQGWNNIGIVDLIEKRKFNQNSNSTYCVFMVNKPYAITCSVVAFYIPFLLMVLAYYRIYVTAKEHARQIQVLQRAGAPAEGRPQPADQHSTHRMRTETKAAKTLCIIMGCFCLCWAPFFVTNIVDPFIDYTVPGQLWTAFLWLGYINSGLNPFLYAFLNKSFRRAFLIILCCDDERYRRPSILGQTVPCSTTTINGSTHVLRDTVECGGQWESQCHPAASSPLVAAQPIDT
# BCHE: Cholinesterase (BCHE, Homo sapiens, UniProt P06276)
# Sequence of UniProt P06276 (whole entry, looked up): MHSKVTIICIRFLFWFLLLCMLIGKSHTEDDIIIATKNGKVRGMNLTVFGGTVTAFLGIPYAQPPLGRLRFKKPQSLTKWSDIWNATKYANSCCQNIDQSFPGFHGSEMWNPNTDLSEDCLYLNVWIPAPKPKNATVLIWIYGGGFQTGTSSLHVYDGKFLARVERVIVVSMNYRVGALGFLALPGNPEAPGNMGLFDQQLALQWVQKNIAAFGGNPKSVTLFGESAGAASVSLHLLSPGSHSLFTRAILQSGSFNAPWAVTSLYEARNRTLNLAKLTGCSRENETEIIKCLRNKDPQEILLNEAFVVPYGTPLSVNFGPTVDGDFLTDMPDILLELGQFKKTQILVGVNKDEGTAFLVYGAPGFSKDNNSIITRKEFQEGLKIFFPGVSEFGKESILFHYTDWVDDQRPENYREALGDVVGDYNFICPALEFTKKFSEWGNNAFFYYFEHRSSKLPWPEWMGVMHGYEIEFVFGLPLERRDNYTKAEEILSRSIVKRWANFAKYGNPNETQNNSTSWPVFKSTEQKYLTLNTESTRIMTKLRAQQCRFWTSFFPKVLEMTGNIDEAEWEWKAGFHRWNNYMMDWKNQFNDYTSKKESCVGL
# Sequence of UniProt Q92743 (whole entry, looked up): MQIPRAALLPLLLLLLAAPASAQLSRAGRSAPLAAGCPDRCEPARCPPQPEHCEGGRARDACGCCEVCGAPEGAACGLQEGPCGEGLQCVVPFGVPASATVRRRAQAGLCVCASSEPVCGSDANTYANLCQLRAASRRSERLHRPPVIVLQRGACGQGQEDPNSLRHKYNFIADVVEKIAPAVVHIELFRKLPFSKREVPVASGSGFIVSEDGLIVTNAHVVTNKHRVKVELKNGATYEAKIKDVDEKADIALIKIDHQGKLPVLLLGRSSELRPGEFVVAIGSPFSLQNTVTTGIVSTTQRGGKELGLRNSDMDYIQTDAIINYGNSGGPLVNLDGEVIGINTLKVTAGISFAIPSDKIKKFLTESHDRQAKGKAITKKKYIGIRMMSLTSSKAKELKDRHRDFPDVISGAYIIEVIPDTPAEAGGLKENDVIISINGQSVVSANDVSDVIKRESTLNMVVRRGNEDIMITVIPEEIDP
# Sequence of UniProt P30411 (whole entry, looked up): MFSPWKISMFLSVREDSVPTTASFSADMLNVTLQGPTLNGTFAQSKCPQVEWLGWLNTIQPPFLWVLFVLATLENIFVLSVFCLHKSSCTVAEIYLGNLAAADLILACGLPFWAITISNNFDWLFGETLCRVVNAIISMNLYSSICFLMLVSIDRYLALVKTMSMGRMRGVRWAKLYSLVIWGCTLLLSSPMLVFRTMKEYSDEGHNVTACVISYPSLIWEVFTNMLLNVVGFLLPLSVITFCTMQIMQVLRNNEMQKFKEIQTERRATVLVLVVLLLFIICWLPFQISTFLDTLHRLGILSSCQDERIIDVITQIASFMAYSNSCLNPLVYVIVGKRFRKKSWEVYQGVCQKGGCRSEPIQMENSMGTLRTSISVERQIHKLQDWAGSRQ
# Sequence of UniProt Q9NRA0 (whole entry, unmodified, looked up): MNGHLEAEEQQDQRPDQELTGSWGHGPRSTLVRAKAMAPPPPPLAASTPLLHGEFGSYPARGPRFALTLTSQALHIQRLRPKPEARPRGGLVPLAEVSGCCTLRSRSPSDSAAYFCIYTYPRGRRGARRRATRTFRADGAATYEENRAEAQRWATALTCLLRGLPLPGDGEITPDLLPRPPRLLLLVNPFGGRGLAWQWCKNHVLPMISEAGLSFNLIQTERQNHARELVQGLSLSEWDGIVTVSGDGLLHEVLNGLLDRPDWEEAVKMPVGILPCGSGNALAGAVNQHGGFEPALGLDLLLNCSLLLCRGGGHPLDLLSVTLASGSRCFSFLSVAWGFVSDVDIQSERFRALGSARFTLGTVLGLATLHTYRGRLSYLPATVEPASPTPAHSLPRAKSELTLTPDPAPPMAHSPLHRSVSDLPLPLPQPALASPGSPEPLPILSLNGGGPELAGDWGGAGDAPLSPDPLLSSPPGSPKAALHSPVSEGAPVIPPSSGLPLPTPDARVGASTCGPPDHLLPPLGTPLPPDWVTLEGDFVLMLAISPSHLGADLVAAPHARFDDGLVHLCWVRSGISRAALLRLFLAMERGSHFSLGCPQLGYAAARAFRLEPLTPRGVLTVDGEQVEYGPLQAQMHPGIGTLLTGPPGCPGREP
# Sequence of UniProt P14416 (whole entry, looked up): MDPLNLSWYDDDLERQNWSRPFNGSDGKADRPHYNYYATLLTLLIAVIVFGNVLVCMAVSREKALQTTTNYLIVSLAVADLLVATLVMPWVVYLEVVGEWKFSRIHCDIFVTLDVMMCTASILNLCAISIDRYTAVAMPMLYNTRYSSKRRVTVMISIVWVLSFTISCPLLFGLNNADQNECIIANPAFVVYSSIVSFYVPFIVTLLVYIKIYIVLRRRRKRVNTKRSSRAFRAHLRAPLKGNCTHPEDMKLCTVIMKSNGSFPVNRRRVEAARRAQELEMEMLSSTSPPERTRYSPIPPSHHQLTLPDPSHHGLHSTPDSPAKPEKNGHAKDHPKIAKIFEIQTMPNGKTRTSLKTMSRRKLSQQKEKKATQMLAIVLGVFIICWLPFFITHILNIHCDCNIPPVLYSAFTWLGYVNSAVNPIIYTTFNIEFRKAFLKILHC
# Sequence of UniProt Q96RI8 (whole entry, looked up): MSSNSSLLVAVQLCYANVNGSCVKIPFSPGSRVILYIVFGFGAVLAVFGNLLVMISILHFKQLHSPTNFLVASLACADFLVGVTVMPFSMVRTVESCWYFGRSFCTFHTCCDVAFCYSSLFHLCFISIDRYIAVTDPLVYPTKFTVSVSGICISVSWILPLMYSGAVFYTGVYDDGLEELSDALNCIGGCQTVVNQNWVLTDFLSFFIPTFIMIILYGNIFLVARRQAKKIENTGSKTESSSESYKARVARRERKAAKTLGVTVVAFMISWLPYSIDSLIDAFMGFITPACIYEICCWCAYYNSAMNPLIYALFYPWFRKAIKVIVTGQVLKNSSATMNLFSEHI
# Sequence of UniProt P40926 (whole entry, looked up): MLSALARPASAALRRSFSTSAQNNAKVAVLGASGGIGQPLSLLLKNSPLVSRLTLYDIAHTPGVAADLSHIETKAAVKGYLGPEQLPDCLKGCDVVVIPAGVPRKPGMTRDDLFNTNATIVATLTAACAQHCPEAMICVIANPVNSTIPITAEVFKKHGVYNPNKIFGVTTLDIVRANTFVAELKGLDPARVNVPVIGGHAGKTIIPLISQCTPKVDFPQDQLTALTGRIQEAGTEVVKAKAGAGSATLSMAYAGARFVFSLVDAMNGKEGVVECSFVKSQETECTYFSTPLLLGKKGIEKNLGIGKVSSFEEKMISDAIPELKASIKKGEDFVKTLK
Structure (SMILES),target or system,assay,system,conditions,how to read,quantity,result
O=C(Nc1cccnn1)N1CCC(=Cc2cccc(Oc3ccc(C(F)(F)F)cn3)c2)CC1,HTR4,radioligand binding,,"50 µM, together with: [3H]GR-113808",,inhibition of binding,61%
COc1ccc(N2C(=O)N(c3c(C)cccc3Cl)Cc3cnc(Nc4ccc(C5CCN(C)CC5)cc4OC)nc32)nc1,"Sphingosine kinase 2 (SPHK2, Homo sapiens, UniProt Q9NRA0)",kinase activity,,0.5 µM,,inhibition,-2.46%
CN[C@]1(c2ccccc2Cl)CCCCC1=O,"D(2) dopamine receptor, short isoform (DRD2, Homo sapiens, UniProt P14416)","radioligand binding, agonist, radioligand displacement",,30 µM,,inhibition,-12%
CCC1=C[C@@H]2CN3CCc4c([nH]c5ccccc45)[C@@](C(=O)OC)(C2)[C@@H]13,BCHE,,,"concentration not given, Triton",,efficacy,-81 ± 14.3%
CN(C(=O)n1cnc(-c2ccc[n+]([O-])c2)c1)C1CCCCC1,"B2 bradykinin receptor (BDKRB2, Homo sapiens, UniProt P30411)",radioligand binding,,"10 µM, together with: [3H]bradykinin",,inhibition,2%
CC(C)n1cnc2c(NCCc3ccc(O)cc3)nc(-c3csc4ccccc34)nc21,BCHE,,,"concentration not given, Triton",,efficacy,-53 ± 9.35%
C[C@H]1CN(c2n[nH]c3nc(N[C@H]4CC[C@H](NS(=O)(=O)CCC(F)(F)F)CC4)ncc23)CCO1,"Malate dehydrogenase, mitochondrial (MDH2, Homo sapiens, UniProt P40926)","inhibitor, Kinobeads competition profiling",,0.8 µM,baseline: vehicle,relative abundance,1.15
CC(CCc1ccccc1)NC(C)C(O)c1ccc(O)cc1 (centres unmarked),Plasmodium falciparum,,7G8,,,IC50,7.94 µM
O=C(c1ccc(Cl)cc1)N1CCN2C(=O)N(OC(=O)N3CCOc4ccccc43)C(=O)C2C1 (centres unmarked),"Serine protease HTRA1 (Homo sapiens, UniProt Q92743)",MS-based ABPP,SW-620 conditioned medium,"10 µM, 1 h, 37 °C",baseline: treated over control,mean protein ratio,1.19
O=C(NCCCNc1nc(Nc2cccc(CN3CCOCC3)c2)ncc1C1CC1)C1CCC1,BCHE,,,"concentration not given, Triton",,efficacy,-90.6 ± 7.18%
Oc1ccc2c3c1O[C@H]1[C@@H](O)CC[C@@]4(O)[C@@H](C2)N(CC2CCC2)CC[C@]314,"Trace amine-associated receptor 6 (TAAR6, Homo sapiens, UniProt Q96RI8)","β-arrestin recruitment, TANGO luminescence, item: TAAR6",,concentration not given,baseline: basal luminescence,log2 fold change,0.007
O=C(Nc1cnccc1Cl)N1CCN(Cc2ccc3c(c2)OC(F)(F)O3)CC1,HTR4,radioligand binding,,"50 µM, together with: [3H]GR-113808",,inhibition of binding,21%
CN(C)CCCN1c2ccccc2CCc2ccccc21,Plasmodium falciparum,,7G8,,,IC50,5.01 µM
COc1cc(N)c(Cl)cc1C(=O)NC[C@@H]1CCN2CCC[C@@H]12.Cl,BCHE,,,"concentration not given, Triton",,efficacy,-48.8 ± 16.9%

# Some of these lines once more:
Structure (SMILES),target or system,assay,system,conditions,how to read,quantity,result
CC(C)n1cnc2c(NCCc3ccc(O)cc3)nc(-c3csc4ccccc34)nc21,BCHE,,,"concentration not given, Triton",,efficacy,-53 ± 9.35%
